Measured values from different studies.
Every numbered part comes from another study and shows a few of its results, in no order. “And” joins repeats or separate records; there may be more than shown.
Chain of UniProt Q5S007 (whole entry, unmodified, looked up): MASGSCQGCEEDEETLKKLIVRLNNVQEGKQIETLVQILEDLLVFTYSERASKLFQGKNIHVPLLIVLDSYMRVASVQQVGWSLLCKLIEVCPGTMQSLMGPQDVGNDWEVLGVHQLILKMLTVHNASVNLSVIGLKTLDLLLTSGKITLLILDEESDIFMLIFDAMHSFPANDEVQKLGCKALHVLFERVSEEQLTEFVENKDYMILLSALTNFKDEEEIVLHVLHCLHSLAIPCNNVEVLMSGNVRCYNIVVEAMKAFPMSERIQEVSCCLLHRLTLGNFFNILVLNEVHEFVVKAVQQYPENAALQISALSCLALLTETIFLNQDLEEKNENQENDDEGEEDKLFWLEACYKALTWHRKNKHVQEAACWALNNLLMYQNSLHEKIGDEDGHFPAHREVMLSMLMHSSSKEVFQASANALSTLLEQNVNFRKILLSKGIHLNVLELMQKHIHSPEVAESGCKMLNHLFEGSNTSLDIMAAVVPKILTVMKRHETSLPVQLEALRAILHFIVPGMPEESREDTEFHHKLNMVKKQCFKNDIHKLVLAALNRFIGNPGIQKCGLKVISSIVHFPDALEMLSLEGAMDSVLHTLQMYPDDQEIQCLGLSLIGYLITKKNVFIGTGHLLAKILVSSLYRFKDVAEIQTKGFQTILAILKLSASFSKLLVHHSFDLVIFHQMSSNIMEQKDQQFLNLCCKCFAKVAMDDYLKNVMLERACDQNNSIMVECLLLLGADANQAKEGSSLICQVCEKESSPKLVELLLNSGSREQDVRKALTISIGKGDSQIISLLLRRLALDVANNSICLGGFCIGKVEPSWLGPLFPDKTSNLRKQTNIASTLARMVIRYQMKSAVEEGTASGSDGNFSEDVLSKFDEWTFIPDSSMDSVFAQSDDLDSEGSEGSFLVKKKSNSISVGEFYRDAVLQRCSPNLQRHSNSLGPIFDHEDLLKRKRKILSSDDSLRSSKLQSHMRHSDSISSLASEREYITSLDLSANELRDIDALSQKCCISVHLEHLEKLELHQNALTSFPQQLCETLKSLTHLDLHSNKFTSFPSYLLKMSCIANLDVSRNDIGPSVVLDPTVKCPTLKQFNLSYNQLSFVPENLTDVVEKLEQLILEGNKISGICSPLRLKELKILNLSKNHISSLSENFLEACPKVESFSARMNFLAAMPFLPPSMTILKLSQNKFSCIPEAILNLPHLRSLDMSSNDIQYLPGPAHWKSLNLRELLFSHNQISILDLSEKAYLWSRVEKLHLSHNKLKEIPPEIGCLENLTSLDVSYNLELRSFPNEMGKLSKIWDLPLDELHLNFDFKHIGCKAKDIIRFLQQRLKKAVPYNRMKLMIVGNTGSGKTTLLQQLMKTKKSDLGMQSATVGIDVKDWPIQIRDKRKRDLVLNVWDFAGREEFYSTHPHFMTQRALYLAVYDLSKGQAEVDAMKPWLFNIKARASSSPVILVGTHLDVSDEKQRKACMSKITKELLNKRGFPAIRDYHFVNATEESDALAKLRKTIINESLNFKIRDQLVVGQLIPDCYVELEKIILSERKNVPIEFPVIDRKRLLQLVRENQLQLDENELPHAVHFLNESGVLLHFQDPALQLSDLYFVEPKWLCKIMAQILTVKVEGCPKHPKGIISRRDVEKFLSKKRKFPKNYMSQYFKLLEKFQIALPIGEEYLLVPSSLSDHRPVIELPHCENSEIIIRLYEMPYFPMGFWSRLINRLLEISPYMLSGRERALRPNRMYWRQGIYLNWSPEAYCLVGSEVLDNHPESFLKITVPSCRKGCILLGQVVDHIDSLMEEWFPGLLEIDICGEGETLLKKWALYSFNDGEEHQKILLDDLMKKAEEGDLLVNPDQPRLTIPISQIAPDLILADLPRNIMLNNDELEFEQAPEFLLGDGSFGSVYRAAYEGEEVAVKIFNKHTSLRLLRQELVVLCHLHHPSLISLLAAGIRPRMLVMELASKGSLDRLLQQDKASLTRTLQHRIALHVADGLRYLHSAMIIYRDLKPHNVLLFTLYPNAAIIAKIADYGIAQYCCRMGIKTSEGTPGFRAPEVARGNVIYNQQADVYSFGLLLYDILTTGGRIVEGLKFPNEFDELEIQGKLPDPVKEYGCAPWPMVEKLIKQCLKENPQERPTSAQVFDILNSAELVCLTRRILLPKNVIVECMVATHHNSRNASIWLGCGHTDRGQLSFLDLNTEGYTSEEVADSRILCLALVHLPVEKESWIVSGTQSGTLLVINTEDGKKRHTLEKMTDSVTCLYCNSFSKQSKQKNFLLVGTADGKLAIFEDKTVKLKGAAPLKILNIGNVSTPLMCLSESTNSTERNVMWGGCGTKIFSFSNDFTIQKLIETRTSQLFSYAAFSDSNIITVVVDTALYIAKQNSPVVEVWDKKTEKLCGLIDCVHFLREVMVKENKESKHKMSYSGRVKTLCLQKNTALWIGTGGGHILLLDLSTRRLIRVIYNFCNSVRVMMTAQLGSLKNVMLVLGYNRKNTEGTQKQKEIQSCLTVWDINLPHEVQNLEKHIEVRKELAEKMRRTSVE
Chain of UniProt Q16620 (whole entry, looked up): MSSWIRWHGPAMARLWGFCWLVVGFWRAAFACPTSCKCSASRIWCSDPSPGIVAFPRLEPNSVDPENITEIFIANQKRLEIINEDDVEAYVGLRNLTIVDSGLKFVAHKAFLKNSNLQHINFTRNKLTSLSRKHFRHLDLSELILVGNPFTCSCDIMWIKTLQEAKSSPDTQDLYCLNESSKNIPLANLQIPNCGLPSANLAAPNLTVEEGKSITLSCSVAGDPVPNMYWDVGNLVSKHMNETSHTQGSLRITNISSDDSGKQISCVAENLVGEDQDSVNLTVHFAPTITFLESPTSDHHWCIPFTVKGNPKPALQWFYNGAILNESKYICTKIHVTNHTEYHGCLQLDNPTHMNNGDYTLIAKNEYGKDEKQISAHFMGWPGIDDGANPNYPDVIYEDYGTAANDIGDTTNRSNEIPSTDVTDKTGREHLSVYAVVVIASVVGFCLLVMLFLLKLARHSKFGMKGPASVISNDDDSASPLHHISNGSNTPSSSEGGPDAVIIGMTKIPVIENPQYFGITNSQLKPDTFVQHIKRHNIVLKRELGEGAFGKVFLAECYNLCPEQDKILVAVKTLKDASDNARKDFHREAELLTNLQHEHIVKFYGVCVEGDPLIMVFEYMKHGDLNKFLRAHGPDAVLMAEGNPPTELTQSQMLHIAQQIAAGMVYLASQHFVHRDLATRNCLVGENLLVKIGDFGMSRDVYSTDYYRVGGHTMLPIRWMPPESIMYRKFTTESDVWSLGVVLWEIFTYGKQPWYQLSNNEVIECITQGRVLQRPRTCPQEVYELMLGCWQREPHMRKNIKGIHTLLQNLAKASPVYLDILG
Chain of UniProt Q86YV6 (whole entry, looked up): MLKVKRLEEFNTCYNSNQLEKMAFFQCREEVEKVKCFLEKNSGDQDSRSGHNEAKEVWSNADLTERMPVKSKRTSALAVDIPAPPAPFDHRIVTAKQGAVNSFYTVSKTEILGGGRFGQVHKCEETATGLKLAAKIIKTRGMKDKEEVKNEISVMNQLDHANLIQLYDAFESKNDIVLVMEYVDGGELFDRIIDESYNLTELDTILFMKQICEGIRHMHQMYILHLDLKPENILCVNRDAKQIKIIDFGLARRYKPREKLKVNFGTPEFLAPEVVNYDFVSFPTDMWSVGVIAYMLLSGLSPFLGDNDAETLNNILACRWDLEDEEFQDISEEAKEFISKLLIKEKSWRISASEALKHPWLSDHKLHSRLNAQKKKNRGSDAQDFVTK

Block 1
Cell line: mouse MPNST tumor cells
Technique: high-content nuclear imaging
Measured: cell number
Concentration: 10 µM
Time: 12 h
Setting: mean of 2 replicates
Reference: plate mean
Direction: higher = more cells
| SMILES | nuclei count [z-score] |
| --- | --- |
| CC[N+](CC)(CC(=O)Nc1c(C)cccc1C)Cc1ccccc1 | 0.916 |
| CCC(CC)Nc1cc(C)nc(Oc2c(C)cc(C)cc2C)c1C | 1.35 |
| O=C(O)c1cccnc1 | 0.79 |
| OC1(c2ccc(Cl)cc2)CCN(Cc2c[nH]c3ccccc23)CC1 | -6.03 |
| CCN(Cc1ccccc1)C(=O)Cn1c(=O)n(C)c2cnc(-c3ccccc3)nc21 | 3.3 |
| CCCc1cc(-c2nc(-c3ccc(C)cc3)cs2)ccn1 | -0.654 |
| COc1cc2ncnc(Nc3ccc(Oc4ccccc4)cc3)c2cc1OC | 8.22 |
| Cc1ccc(Nc2nccc(N(C)c3ccc4c(C)n(C)nc4c3)n2)cc1S(N)(=O)=O | -1.11 |

Block 2
Structure (SMILES): CO[C@@H](C)c1c(Nc2ccc([C@@H](N(C)C(=O)C3CCS(=O)(=O)CC3)C(F)(F)F)cc2)cnc2cc(Cl)nn12
Observed: cell-free assay
Technique: competition with immobilised ligand
Concentration: 1 µM
| target | remaining binding |
| --- | --- |
| SRPK3 (Homo sapiens, UniProt Q9UPE1) | 100% |
| NTRK2 (Homo sapiens, UniProt Q16620) | 100% |
| MYLK (Homo sapiens, UniProt Q15746) | 98% |
| TNK2 (Homo sapiens, UniProt Q07912) | 84% |
| PIK3CB (Homo sapiens, UniProt P42338) | 72% |
| FGFR4 (Homo sapiens, UniProt P22455) | 92% |
| EPHA4 (Homo sapiens, UniProt P54764) | 100% |
| KIT (Homo sapiens, UniProt P10721, D816H) | 100% |
| PRKD2 (Homo sapiens, UniProt Q9BZL6) | 86% |
| BRAF (Homo sapiens, UniProt P15056) | 76% |
| LRRK2 (Homo sapiens, UniProt Q5S007, G2019S) | 100% |
| MYLK4 (Homo sapiens, UniProt Q86YV6) | 83% |

Block 3
Target: Ephrin type-A receptor 8 (EPHA8, Homo sapiens, UniProt P29322)
Chain of UniProt P29322 (whole entry, looked up): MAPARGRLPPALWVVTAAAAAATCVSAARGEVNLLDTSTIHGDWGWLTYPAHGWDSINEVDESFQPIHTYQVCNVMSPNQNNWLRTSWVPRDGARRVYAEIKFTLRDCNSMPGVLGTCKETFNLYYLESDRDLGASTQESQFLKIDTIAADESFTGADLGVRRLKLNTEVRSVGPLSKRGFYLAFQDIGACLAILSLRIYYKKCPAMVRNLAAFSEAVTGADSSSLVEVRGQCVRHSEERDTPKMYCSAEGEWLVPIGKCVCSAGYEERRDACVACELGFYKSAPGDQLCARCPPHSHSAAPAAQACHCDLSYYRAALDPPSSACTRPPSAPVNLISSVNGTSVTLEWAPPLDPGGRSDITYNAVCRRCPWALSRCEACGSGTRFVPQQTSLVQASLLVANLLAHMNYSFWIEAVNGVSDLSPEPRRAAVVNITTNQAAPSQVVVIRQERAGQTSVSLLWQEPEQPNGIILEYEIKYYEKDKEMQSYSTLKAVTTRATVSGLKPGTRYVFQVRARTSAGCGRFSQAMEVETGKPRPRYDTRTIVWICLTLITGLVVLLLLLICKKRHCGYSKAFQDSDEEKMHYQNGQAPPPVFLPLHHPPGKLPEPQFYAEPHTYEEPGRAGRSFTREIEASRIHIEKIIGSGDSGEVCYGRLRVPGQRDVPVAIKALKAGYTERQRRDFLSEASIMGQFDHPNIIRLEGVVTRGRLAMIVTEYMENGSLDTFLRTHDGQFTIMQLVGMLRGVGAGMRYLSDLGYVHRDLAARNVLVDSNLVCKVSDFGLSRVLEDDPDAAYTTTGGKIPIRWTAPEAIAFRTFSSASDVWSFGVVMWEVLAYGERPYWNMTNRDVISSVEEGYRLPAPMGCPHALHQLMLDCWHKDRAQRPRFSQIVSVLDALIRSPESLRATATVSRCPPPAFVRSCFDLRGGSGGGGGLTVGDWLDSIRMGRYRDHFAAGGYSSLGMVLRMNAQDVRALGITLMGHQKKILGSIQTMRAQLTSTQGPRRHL
Observed: enzyme activity
Mode: inhibitor
Concentration: 0.5 µM
Reference: control
| Compound | remaining activity [%] |
| --- | --- |
| O=Nc1c(-c2c(O)[nH]c3cc(Br)ccc23)[nH]c2ccccc12 | 97.6 |
| c1ccc(-c2n[nH]c3c2oc2ccccc23)cc1 | 102 |
| O=C1NC(=O)c2c1c1c3ccccc3[nH]c1n1cncc21 | 97.5 |
| N#Cc1cnc2cnc(NCc3cccnc3)cc2c1Nc1ccc(F)c(Cl)c1 | 91.2 |
| O=C1Nc2ccccc2/C1=C\c1c(Cl)[nH]c2ccccc12 | 103 |

Other studies, line by line
| SMILES | cell line | assay | setting | how to read | quantity | result |
| --- | --- | --- | --- | --- | --- | --- |
| CC(C)S(=O)(=O)c1ccc2nccc(Nc3ccc4sc(C5CCCC5)nc4c3)c2c1.Cl | L929 | caspase activity, Ac-DEVD-pNA absorbance | 50 µM, 2 h | higher = more activity | caspase-3 activity | 0.013 a.u. and 0.053 a.u. and 0.016 a.u. and 0.029 a.u. |

Excerpt of the above (block 1):
| SMILES | nuclei count [z-score] |
| --- | --- |
| OC1(c2ccc(Cl)cc2)CCN(Cc2c[nH]c3ccccc23)CC1 | -6.03 |
| COc1cc2ncnc(Nc3ccc(Oc4ccccc4)cc3)c2cc1OC | 8.22 |
| CCN(Cc1ccccc1)C(=O)Cn1c(=O)n(C)c2cnc(-c3ccccc3)nc21 | 3.3 |
| CCCc1cc(-c2nc(-c3ccc(C)cc3)cs2)ccn1 | -0.654 |
